Experimental data pooled from the literature.
Compare with care: the assays were run in different laboratories. Numbers after ± are the reported error.
U2AF2: U2AF2 148-342 (Homo sapiens, UniProt P26368)
UniProt P26368, sequence (whole entry, looked up): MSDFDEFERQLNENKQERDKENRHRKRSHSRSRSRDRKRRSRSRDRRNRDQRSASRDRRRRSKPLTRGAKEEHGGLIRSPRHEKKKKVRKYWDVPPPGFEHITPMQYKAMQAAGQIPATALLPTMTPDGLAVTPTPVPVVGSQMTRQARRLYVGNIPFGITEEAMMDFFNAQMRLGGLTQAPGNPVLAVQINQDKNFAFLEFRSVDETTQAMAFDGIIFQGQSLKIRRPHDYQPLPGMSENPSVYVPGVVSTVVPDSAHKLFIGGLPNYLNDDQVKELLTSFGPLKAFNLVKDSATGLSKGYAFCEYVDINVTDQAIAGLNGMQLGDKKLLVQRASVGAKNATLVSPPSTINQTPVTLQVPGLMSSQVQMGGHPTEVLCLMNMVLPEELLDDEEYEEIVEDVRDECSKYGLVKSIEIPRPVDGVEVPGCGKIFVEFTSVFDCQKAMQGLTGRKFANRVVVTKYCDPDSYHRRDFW
B1: PYCR2 R251C (Homo sapiens, UniProt Q96C36); chain MSVGFIGAGQLAYALARGFTAAGILSAHKIIASSPEMNLPTVSALRKMGVNLTRSNKETVKHSDVLFLAVKPHIIPFILDEIGADVQARHIVVSCAAGVTISSVEKKLMAFQPAPKVIRCMTNTPVVVQEGATVYATGTHALVEDGQLLEQLMSSVGFCTEVEEDLIDAVTGLSGSGPAYAFMALDALADGGVKMGLPRRLAIQLGAQALLGAAKMLLDSEQHPCQLKDNVCSPGGATIHALHFLESGGFCSLLINAVEASCIRTRELQSMADQEKISPAALKKTLLDRVKLESPTVSTLTPSSPGKLLTRSLALGGKKD
B2: CYP4F3 A27G/C46R/I34V/M14V/R49Q/W12G (Homo sapiens, UniProt Q08477); chain MALLLAVFLLGPVAASPWLLLLLVGGSWLLARVLAWTYTFYDNCRRLQCFPQPPKRNWFLGHLGLIHSSEEGLLYTQSLACTFGDMCCWWVGPWHAIVRIFHPTYIKPVLFAPAAIVPKDKVFYSFLKPWLGDGLLLSAGEKWSRHRRMLTPAFHFNILKPYMKIFNESVNIMHAKWQLLASEGSARLDMFEHISLMTLDSLQKCVFSFDSHCQEKPSEYIAAILELSALVTKRHQQILLYIDFLYYLTPDGQRFRRACRLVHDFTDAVIQERRRTLPSQGVDDFLQAKAKSKTLDFIDVLLLSKDEDGKKLSDEDIRAEADTFMFEGHDTTASGLSWVLYHLAKHPEYQERCRQEVQELLKDREPKEIEWDDLAQLPFLTMCIKESLRLHPPVPAVSRCCTQDIVLPDGRVIPKGIICLISVFGTHHNPAVWPDPEVYDPFRFDPKNIKERSPLAFIPFSAGPRNCIGQAFAMAEMKVVLGLTLLRFRVLPDHTEPRRKPELVLRAEGGLWLRVEPLS
B3: enzyme (Azotobacter vinelandii, UniProt C1DN94); chain MSESPLRLDRLRDFVSALGELLDRHPDEESVLREGRSLLGELVRHDDWLPEEFAQPDPERYQQYLLHADSRQRFSVVSFVWGPGQTTPVHDHRVWGLIGMLRGAEDAQSFELGAEGLRPIGDPVRLSPGQVEAVSPRIGDIHRVFNASPDQPSISIHVYGANIGAVRRAVYLPDGSEKPFISGYSNQFLPNIWDQSKESARP
B4: aspC A106G/A218G/F210I/I29V/I33V/I68L/I71L/N30D/N64T/S135A/T100S/V136I/V375I (Escherichia coli, UniProt P00509); chain MFENITAAPADPILGLADLFRADERPGKVDLGVGVYKDETGKTPVLTSVKKAEQYLLENETTKTYLGLDGLPEFGRCTQELLFGKGSALINDKRARTAQSPGGTGGLRVAADFLAKNTSVKRVWVSNPSWPNHKAIFNSAGLEVREYAYYDAENHTLDFDALINSLNEAQAGDVVLFHGCCHNPTGIDPTLEQWQTLAQLSVEKGWLPLIDFAYQGFGRGLEEDAEGLRAFAAMHKELIVASSYSKNFGLYNERVGACTLVAADSETVDRAFSQMKAAIRANYSNPPAHGASVVATILSNDALRAIWEQELTDMRQRIQRMRQLFVNTLQEKGANRDFSFIIKQNGMFSFSGLTKEQVLRLREEFGVYAVASGRINVAGMTPDNMAPLCEAIVAVL
B5: enzyme S252E (Schizosaccharomyces pombe, UniProt P78804); chain MSTPYEPEFQQAYKEIVGSIESSKLFEVHPELKRVLPIISIPERVLEFRVTWEDDKGNCRVNTGYRVQFNSALGPYKGGLRFHPSVNLSILKFLGFEQIFKNALTGLPMGGGKGGSDFDPKGKSDNEIRRFSQAFMRQLFRYIGPQTDVPAGDIGVTGFVVMHMFGEYKRLRNEYSGVVTGKHMLTGGSNIRPEATGYGVVYYVKHMIEHRTKGAETLKGKRVAISGSGNVAQYAALKCIQEGAIVKSISDEKGVLIAKTAEGLVPEEIHEIMALKEKRASIADSASLCKKHHYIAGARPWTNVGEIDIALPCATQNEVSGEEAAALIKQGCRYVAEGSNMGSSAEAVEVFEKSRASGEGCWLAPGKAANAGGVAVSGLEMAQNAQFSTWTHAEVDAKLAGIMQNIFEQSTDVASKYCDSGSNNIPSLVDGANIAGFLKVATAMQAVGDWW
B6: SCO6712 S292F/V290N/Y229F (Streptomyces coelicolor, UniProt Q9XAL8); chain AKGITARTAPAGGEVRHLKMYAEKLADGQMGYGFEKGKASVPGPLIEVNEGDTLHIEFTNTMDVRASLHVHGLDYEISSDGTAMNKSDVEPGGTRTYTWRTHKPGRRDDGTWRPGSAGYWHYHDHVVGTEHGTGGIRNGLYGPVIVRRKGDVLPDATHTIVFNDMTINNRKPHTGPDFEATVGDRVEIVMITHGEFYHTFHMHGHRWADNRTGILTGPDDPSRVIDNKITGPADSFGFQIIAGEGVGAGAWMYHCHNQFHSDMGMVGLFLVKKPDGTIPGYEPHEHGGATAKSGESGEPTGGAAAHEHEH
B7: enzyme Y157F (Mus musculus, UniProt P60334); chain MERTELLKPRTLADLIRILHELFAGDEVNVEEVQAVLEAYESNPAEWALYAKFDQYRYTRNLVDQGNGKFNLMILCWGEGHGSSIHDHTDSHCFLKLLQGNLKETLFDWPDKKSNEMIKKSERTLRENQCAYINDSIGLHRVENVSHTEPAVSLHLFSPPFDTCHAFDQRTGHKNKVTMTFHSKFGIRTPFTTSGSLENN
B8: enzyme H476A (Methanosarcina mazei, UniProt Q8PVB1); chain MSEQRSVPLREHLLALKPCRHGGLIQETSETYGIPENEILDFSANFNPLGSPFDYPENGLNFEDIIKKSCGKLLEYPDNRYVEFREAAARFVGLGVTPQSIVPGNGSTEIVRLVVESVIEKGDKVLLPWPTFGEYEMQCRITGAEPVCPSQEEVNTLPDEVLEEAKILFICNPNNPTGKLRTREELKVLAERCREHKTLLYVDEAFIELSDPSQSVADLPAENNYVFVMRSLTKDFAIPGIRMGFGIAPPAMADILNTARLSWNLGAIANNTGIALLNIEGGIDSPYLKKAREMILKEGETLKAKIDRIRGFEAGEVNVNFILVDVSKFMLNSSELTARLAARGVLVRDCVSFHGLGKNYIRVAVRTEKENDRLIAAIGDVITEWGREQAKNELQHVIEKASEEGIGGRKTCEYYPCHFEGQNCTFCFCPFYPCENEKTGGKWIQSSRGGRVWSCVDCHLVHKKEIAQKILDCLMAEGDTDELVKVAWKEVMEPIL
B9: cathepsin A (human); sequence looked up; chain APDQDEIQRLPGLAKQPSFRQYSGYLKGSGSKHLHYWFVESQKDPENSPVVLWLNGGPGCSSLDGLLTEHGPFLVQPDGVTLEYNPYSWNLIANVLYLESPAGVGFSYSDDKFYATNDTEVAQSNFEALQDFFRLFPEYKNNKLFLTGESYAGIYIPTLAVLVMQDPSMNLQGLAVGNGLSSYEQNDNSLVYFAYYHGLLGNRLWSSLQTHCCSQNKCNFYDNKDLECVTNLQEVARIVGNSGLNIYNLYAPCAGGVPSHFRYEKDTVVVQDLGNIFTRLPLKRMWHQALLRSGDKVRMDPPCTNTTAASTYLNNPYVRKALNIPEQLPQWDMCNFLVNLQYRRLYRSMNSQYLKLLSSQKYQILLYNGDVDMACNFMGDEWFVDSLNQKMEVQRRPWLVKYGDSGEQIAGFVKEFSHIAFLTIKGAGHMVPTDKPLAAFTMFSRFLNKQPY
UniProt P00327, sequence (whole entry, looked up): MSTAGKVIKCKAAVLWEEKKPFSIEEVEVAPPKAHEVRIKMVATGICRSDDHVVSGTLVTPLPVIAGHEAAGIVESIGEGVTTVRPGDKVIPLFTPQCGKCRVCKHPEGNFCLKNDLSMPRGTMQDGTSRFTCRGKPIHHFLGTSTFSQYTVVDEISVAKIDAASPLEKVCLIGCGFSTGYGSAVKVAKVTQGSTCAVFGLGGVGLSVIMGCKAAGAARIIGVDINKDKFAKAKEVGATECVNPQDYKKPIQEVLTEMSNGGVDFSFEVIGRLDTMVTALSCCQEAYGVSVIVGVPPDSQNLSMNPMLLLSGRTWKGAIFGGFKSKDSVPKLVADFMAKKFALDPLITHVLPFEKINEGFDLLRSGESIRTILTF
UniProt Q978S7, sequence (whole entry, looked up): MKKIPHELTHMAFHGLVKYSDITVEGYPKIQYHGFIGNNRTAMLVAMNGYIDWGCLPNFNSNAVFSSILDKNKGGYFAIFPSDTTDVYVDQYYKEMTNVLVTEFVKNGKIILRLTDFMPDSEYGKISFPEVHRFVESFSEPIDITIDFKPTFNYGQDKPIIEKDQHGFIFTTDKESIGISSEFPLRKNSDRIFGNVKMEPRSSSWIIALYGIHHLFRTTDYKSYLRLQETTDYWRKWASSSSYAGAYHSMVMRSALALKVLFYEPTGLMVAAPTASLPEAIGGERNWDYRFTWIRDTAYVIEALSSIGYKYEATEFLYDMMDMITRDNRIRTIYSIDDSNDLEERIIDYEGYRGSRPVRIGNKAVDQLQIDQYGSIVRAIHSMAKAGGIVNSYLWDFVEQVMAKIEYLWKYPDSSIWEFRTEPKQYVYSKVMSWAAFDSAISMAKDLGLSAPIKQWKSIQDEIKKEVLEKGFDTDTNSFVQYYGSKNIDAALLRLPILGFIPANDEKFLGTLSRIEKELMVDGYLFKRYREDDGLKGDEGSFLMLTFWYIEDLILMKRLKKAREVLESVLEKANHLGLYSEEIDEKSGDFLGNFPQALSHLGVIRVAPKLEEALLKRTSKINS

Molecule	target or system	test	test system	setting	how to read	quantity	result
B1 (PYCR2 R251C)	O=C(O)[C@@H]1CCC=N1	steady-state kinetics	–	pH 7.5, 37 °C, apparent, with: NADH 500 µM	–	kcat/Km	2400 ± 600 M⁻¹ s⁻¹
enzyme (Thermoplasma volcanium, UniProt Q978S7)	OC[C@H]1O[C@H](O[C@H]2O[C@H](CO)[C@@H](O)[C@H](O)[C@H]2O)[C@H](O)[C@@H](O)[C@@H]1O	steady-state kinetics	–	pH 3.7, 30 °C	–	kcat/Km	400 M⁻¹ s⁻¹
B2	CCCCC/C=C\C[C@@H](O)/C=C/C=C/C=C\[C@@H](O)CCCC(=O)O	steady-state kinetics	–	pH 7.4	–	kcat/Km	100 M⁻¹ s⁻¹
gdh N192S/N97F (Bacillus subtilis)	NC(=O)c1ccc[n+]([C@@H]2O[C@H](COP(=O)(O)OP(=O)(O)OC[C@H]3O[C@@H](n4cnc5c(N)ncnc54)[C@H](O)[C@@H]3O)[C@@H](O)[C@H]2O)c1	steady-state kinetics	–	pH 7, 55 °C	–	kcat/Km	72500 ± 2670 M⁻¹ s⁻¹
enzyme (Enterococcus faecium, UniProt A0A132Z3A5)	Nc1ncnc2c1ncn2[C@@H]1O[C@H](COP(=O)(O)OP(=O)(O)OP(=O)(O)O)[C@@H](O)[C@H]1O	steady-state kinetics	–	pH 7.4, 24 °C, apparent, per site	–	kcat/Km	1890 M⁻¹ s⁻¹
B3 (enzyme)	O=C(O)CCS	steady-state kinetics	–	pH 8, 25 °C, with: O2	–	kcat/Km	72000 ± 9200 M⁻¹ s⁻¹
HNL C81L/E79H/G176S/H103V/K236M/N104A/S105A/T11G/V106F (Hevea brasiliensis)	CC(=O)Oc1ccc([N+](=O)[O-])cc1	steady-state kinetics	–	pH 7.2, 22 °C	–	kcat/Km	383 M⁻¹ s⁻¹
CUUCAUUAU (ssRNA)	U2AF2	sequencing of bound RNA	RNA	motif only	–	Kd	3.75 µM
enzyme (Bacteroides fragilis, UniProt Q5LAD6)	C[C@@H]1O[C@@H](Oc2ccc([N+](=O)[O-])cc2Cl)[C@@H](O)[C@H](O)[C@@H]1O	steady-state kinetics	–	pH 8.4, 40 °C	–	kcat/Km	243000 M⁻¹ s⁻¹
B4	N[C@@H](CC(=O)O)C(=O)O	steady-state kinetics	–	pH 7.5, 25 °C, with: PLP 20 µM	–	kcat/Km	43000 M⁻¹ s⁻¹
UAUCUUACU (ssRNA)	U2AF2	sequencing of bound RNA	RNA	motif only	–	Kd	3.31 µM
B5 (enzyme S252E)	NC(=O)c1ccc[n+]([C@@H]2O[C@H](COP(=O)(O)OP(=O)(O)OC[C@H]3O[C@@H](n4cnc5c(N)ncnc54)[C@H](OP(=O)(O)O)[C@@H]3O)[C@@H](O)[C@H]2O)c1	steady-state kinetics	–	pH 7, 30 °C, apparent	–	kcat/Km	24000 ± 2000 M⁻¹ s⁻¹
enzyme (UniProt A0A097IUE6)	O=C(O)CC(=O)C(=O)O	steady-state kinetics	–	pH 7.5, 25 °C	–	kcat/Km	350000 M⁻¹ s⁻¹
enzyme (Equus caballus, UniProt P00327)	NC(=O)c1ccc[n+]([C@@H]2O[C@H](COP(=O)(O)OP(=O)(O)OC[C@H]3O[C@@H](n4cnc5c(N)ncnc54)[C@H](OP(=O)(O)O)[C@@H]3O)[C@@H](O)[C@H]2O)c1	steady-state kinetics	–	pH 7, 30 °C, cofactor varied	–	kcat/Km	4 M⁻¹ s⁻¹
rCR (Lodderomyces parapsilosis, UniProt A1X808)	O=C(CO)c1ccccc1	steady-state kinetics	–	pH 7, 30 °C	–	kcat/Km	6880 M⁻¹ s⁻¹
B6 (SCO6712 S292F/V290N/Y229F)	CCn1c(=NN=c2sc3cc(S(=O)(=O)O)ccc3n2CC)sc2cc(S(=O)(=O)O)ccc21	steady-state kinetics	–	pH 7, 37 °C, NaCl 150 mM, with: O2 cosubstrate	–	kcat/Km	1400 ± 100 M⁻¹ s⁻¹
enzyme (UniProt F0RRL2)	O=P(O)(O)O[C@H]1O[C@H](CO)[C@@H](O)[C@H](O)[C@H]1O	steady-state kinetics	–	pH 5.5, 37 °C, apparent	–	kcat/Km	700 M⁻¹ s⁻¹
human MEP50	CYB5R4 knockout human cells	PP6 interaction, 3xFLAG-PP6C IP-MS	–	concentration not given	reference: CYB5R4 KO over parental	log2 fold change	-0.65
enzyme K46A (Homo sapiens, UniProt Q08623)	O=c1[nH]cc([C@@H]2O[C@H](COP(=O)(O)O)[C@@H](O)[C@H]2O)c(=O)[nH]1	steady-state kinetics	–	pH 7, 25 °C	–	kcat/Km	11200 M⁻¹ s⁻¹
B7 (enzyme Y157F)	N[C@@H](CS)C(=O)O	steady-state kinetics	–	pH 7.5, 37 °C	–	kcat/Km	11.6 M⁻¹ s⁻¹
spt R378K (Sphingomonas paucimobilis)	CCCCCCCCCCCC(=O)SCCNC(=O)CCNC(=O)[C@H](O)C(C)(C)COP(=O)(O)OP(=O)(O)OC[C@H]1O[C@@H](n2cnc3c(N)ncnc32)[C@H](O)[C@@H]1OP(=O)(O)O	steady-state kinetics	–	with: PLP	–	kcat/Km	625 M⁻¹ s⁻¹
B8 (enzyme H476A)	Nc1ncnc2c1ncn2[C@@H]1O[C@H](COP(=O)(O)OP(=O)(O)OP(=O)(O)O)[C@@H](O)[C@H]1O	steady-state kinetics	–	pH 8.5, 25 °C, apparent, anoxic, with: L-Thr 10 mM	–	kcat/Km	76 ± 20 M⁻¹ s⁻¹
B9 (cathepsin A)	CYB5R4 knockout human cells	PP6 interaction, 3xFLAG-PP6C IP-MS	–	concentration not given	reference: CYB5R4 KO over parental	log2 fold change	0.56
